Measurements collected from several papers.
Compare with care: the assays were run in different laboratories. ± gives the spread as reported.

SMILES | assay | system | conditions | scale | endpoint | result
CCCC[C@H](NC(=O)COCCOCCNC(=O)CN1CCN(CC(=O)O)CCN(CC(=O)O)CC1)C(=O)N[C@H]1CC(=O)NCCCC[C@@H](C(N)=O)NC(=O)[C@H](Cc2c[nH]c3ccccc23)NC(=O)[C@H](CCCNC(=N)N)NC(=O)[C@@H](Cc2ccccc2)NC(=O)[C@H](Cc2c[nH]cn2)NC1=O [copper-64 labelled] | – | C57 mice, liver | intravenous, 0.37 MBq, 0.5 h | – | tissue uptake | 2.61 ± 0.55 %ID/g
CC(C)C[C@@H](NC(=O)[C@@H](CC(C)C)NC(=O)[C@@H](CC(=O)O)NC(=O)[C@@H](CC(C)C)NC(=O)[C@@H](CC(C)C)NC(=O)[C@@H](CC(C)C)NC(=O)[C@H](NC(=O)[C@@H](CC(=O)O)NC(=O)[C@H](NC(=O)[C@H]1CCCN1C(=O)[C@@H](Cc1ccccc1)NC(=O)[C@@H](CC(C)C)NC(=O)[C@@H](CC(C)C)NC(=O)[C@@H](CC(=O)O)NC(=O)[C@@H](CC(C)C)NC(=O)[C@@H](Cc1ccc(O)cc1)NC(=O)[C@@H](C)NC(=O)[C@@H](CCCNC(=N)N)NC(=O)[C@@H](Cc1c[nH]c2ccccc12)NC(=O)[C@H]1CCCN1C(=O)[C@@H](CC(N)=O)NC(=O)[C@@H](CCC(N)=O)NC(=O)[C@@H](CC(=O)O)NC(=O)[C@@H](CC(=O)O)NC(=O)[C@@H](CS)NC(=O)[C@@H](C)NC(=S)Nc1ccc(CC2CN(CC(=O)O)CCN(CC(=O)O)CCN2CC(=O)O)cc1)[C@H](C)O)[C@H](C)O)C(=O)N[C@H](Cc1c[nH]c2ccccc12)C(=O)O (stereo partly drawn) [fluorine-18 labelled] | – | female BALB/c mice, 4T1 orthotopic tumour | intravenous, 2 h | baseline: kidney over large intestine | kidney-to-large intestine ratio | 0.52 ± 0.15
N=C(N)NCCC[C@@H]1NC(=O)[C@H](CCCCNC(=O)CC[C@H](NC(=O)CC[C@H](NC(=O)CN2CCN(CC(=O)O)CCN(CC(=O)O)CCN(CC(=O)O)CC2)C(=O)N[C@@H](CCC(=O)NCCCC[C@@H]2NC(=O)[C@@H](Cc3ccccc3)NC(=O)[C@H](CC(=O)O)NC(=O)CNC(=O)[C@H](CCCNC(=N)N)NC2=O)C(=O)NCCCC[C@@H]2NC(=O)[C@@H](Cc3ccccc3)NC(=O)[C@H](CC(=O)O)NC(=O)CNC(=O)[C@H](CCCNC(=N)N)NC2=O)C(=O)NCCCC[C@@H]2NC(=O)[C@@H](Cc3ccccc3)NC(=O)[C@H](CC(=O)O)NC(=O)CNC(=O)[C@H](CCCNC(=N)N)NC2=O)NC(=O)[C@@H](Cc2ccccc2)NC(=O)[C@H](CC(=O)O)NC(=O)CNC1=O [indium-111 labelled] | – | female athymic nu/nu mice, intestine | intravenous, 24 h | – | tissue uptake | 7.03 ± 2.06 %ID/g
CC(C)C[C@H](NC(=O)[C@H](Cc1ccc(O)cc1)NC(=O)[C@@H](CCCNC(=N)N)NC(=O)[C@@H](CO)NC(=O)[C@H](Cc1ccccc1)NC(=O)[C@H](CC1CCCCC1)NC(=O)[C@H](CC(=O)O)NC(=O)CN1CCCN2CCN(CCCN(CC(=O)O)CC2)CC1)C(=O)N[C@@H](Cc1c[nH]c2ccccc12)C(=O)N[C@@H](CO)C(=O)O [copper-64 labelled] | – | female NMRI nude mice, spleen | 22 h p.i. | – | tissue uptake | 2.9 ± 0.7 %ID/g
CCCC[C@H](NC(=O)CNC(=O)CNC(=O)CN1CCN(CC(=O)O)CCN(CC(=O)O)CC1)C(=O)N[C@H]1CC(=O)NCCCC[C@@H](C(N)=O)NC(=O)[C@H](Cc2c[nH]c3ccccc23)NC(=O)[C@H](CCCNC(=N)N)NC(=O)[C@@H](Cc2ccccc2)NC(=O)[C@H](Cc2c[nH]cn2)NC1=O [technetium-99m labelled] | – | C57 mouse, tumor | iv, 0.037 MBq, 4 h | – | tissue uptake | 11.3 ± 2.81 %ID/g
N=C(N)NCCC[C@@H]1NC(=O)[C@H](CCCCNC(=O)CNC(=O)CNC(=O)CNC(=O)CC[C@H](NC(=O)CNC(=O)CNC(=O)CNC(=O)CC[C@H](NC(=O)CN2CCN(CC(=O)O)CCN(CC(=O)O)CCN(CC(=O)O)CC2)C(=O)NCC(=O)NCC(=O)NCC(=O)N[C@@H](CCC(=O)NCC(=O)NCC(=O)NCC(=O)NCCCC[C@@H]2NC(=O)[C@@H](Cc3ccccc3)NC(=O)[C@H](CC(=O)O)NC(=O)CNC(=O)[C@H](CCCNC(=N)N)NC2=O)C(=O)NCC(=O)NCC(=O)NCC(=O)NCCCC[C@@H]2NC(=O)[C@@H](Cc3ccccc3)NC(=O)[C@H](CC(=O)O)NC(=O)CNC(=O)[C@H](CCCNC(=N)N)NC2=O)C(=O)NCC(=O)NCC(=O)NCC(=O)NCCCC[C@@H]2NC(=O)[C@@H](Cc3ccccc3)NC(=O)[C@H](CC(=O)O)NC(=O)CNC(=O)[C@H](CCCNC(=N)N)NC2=O)NC(=O)[C@@H](Cc2ccccc2)NC(=O)[C@H](CC(=O)O)NC(=O)CNC1=O [indium-111 labelled] | – | female athymic nu/nu mice, spleen | intravenous, 111 kBq, 0.5 h | – | tissue uptake | 2.63 ± 0.45 %ID/g
CCCC[C@H](NC(=O)CCCCCCCNC(=O)CN1CCN(CC(=O)O)CCN(CC(=O)O)CC1)C(=O)N[C@H]1CC(=O)NCCCC[C@@H](C(N)=O)NC(=O)[C@H](Cc2c[nH]c3ccccc23)NC(=O)[C@H](CCCNC(=N)N)NC(=O)[C@@H](Cc2ccccc2)NC(=O)[C@H](Cc2c[nH]cn2)NC1=O [copper-64 labelled] | – | C57 mice, kidney | intravenous, 0.37 MBq, 0.5 h | – | tissue uptake | 30.7 ± 0.94 %ID/g
N=C(N)NCCC[C@@H]1NC(=O)[C@H](CCCCNC(=O)CNC(=O)CNC(=O)CNC(=O)CC[C@H](NC(=O)CNC(=O)CNC(=O)CNC(=O)CN2CCN(CC(=O)O)CCN(CC(=O)O)CCN(CC(=O)O)CC2)C(=O)NCC(=O)NCC(=O)NCC(=O)NCCCC[C@@H]2NC(=O)[C@@H](Cc3ccccc3)NC(=O)[C@H](CC(=O)O)NC(=O)CNC(=O)[C@H](CCCNC(=N)N)NC2=O)NC(=O)[C@@H](Cc2ccccc2)NC(=O)[C@H](CC(=O)O)NC(=O)CNC1=O [indium-111 labelled] | – | female athymic nu/nu mice, heart | intravenous, 1 h | – | tissue uptake | 0.6 ± 0.12 %ID/g
CN1C(=O)[C@@H](Cc2ccc(O)cc2)NC(=O)CNC(=O)[C@H](Cc2ccc3ccccc3c2)NC(=O)[C@H](CCCNC(=N)N)NC(=O)[C@H]1CCCNC(=O)c1ccc(CNC(=O)CN2CCN(CC(=O)O)CCN(CC(=O)O)CCN(CC(=O)O)CC2)cc1 [gallium-68 labelled] | MIRD OLINDA/EXM dosimetry | adult male human, heart wall | extrapolated from C57BL/6 mice | – | absorbed dose coefficient | 0.0393 ± 0.0134 mGy/MBq

Repeated from above:
SMILES | assay | system | conditions | scale | endpoint | result
N=C(N)NCCC[C@@H]1NC(=O)[C@H](CCCCNC(=O)CC[C@H](NC(=O)CC[C@H](NC(=O)CN2CCN(CC(=O)O)CCN(CC(=O)O)CCN(CC(=O)O)CC2)C(=O)N[C@@H](CCC(=O)NCCCC[C@@H]2NC(=O)[C@@H](Cc3ccccc3)NC(=O)[C@H](CC(=O)O)NC(=O)CNC(=O)[C@H](CCCNC(=N)N)NC2=O)C(=O)NCCCC[C@@H]2NC(=O)[C@@H](Cc3ccccc3)NC(=O)[C@H](CC(=O)O)NC(=O)CNC(=O)[C@H](CCCNC(=N)N)NC2=O)C(=O)NCCCC[C@@H]2NC(=O)[C@@H](Cc3ccccc3)NC(=O)[C@H](CC(=O)O)NC(=O)CNC(=O)[C@H](CCCNC(=N)N)NC2=O)NC(=O)[C@@H](Cc2ccccc2)NC(=O)[C@H](CC(=O)O)NC(=O)CNC1=O [indium-111 labelled] | – | female athymic nu/nu mice, intestine | intravenous, 24 h | – | tissue uptake | 7.03 ± 2.06 %ID/g
